# Experimental data gathered from unrelated publications.
# Each numbered part is a random draw from the data of one study; scales do not carry over between parts.

# Sample 1
# Target: Centromere-binding protein 1, full length, His-tagged (CBF1, Saccharomyces cerevisiae, UniProt P17106, residues 1-351)
# Chain of UniProt P17106 (whole entry, looked up): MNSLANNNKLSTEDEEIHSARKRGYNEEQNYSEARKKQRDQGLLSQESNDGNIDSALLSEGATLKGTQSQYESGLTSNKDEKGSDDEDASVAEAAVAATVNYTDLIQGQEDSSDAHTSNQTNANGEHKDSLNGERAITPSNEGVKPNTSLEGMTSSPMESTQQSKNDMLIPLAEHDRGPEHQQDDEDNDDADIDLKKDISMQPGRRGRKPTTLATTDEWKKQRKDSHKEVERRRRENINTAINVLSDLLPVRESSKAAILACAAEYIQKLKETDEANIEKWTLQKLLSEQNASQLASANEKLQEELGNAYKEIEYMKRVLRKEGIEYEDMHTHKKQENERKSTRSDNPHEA
# Technique: competition protein-binding microarray
# Form: double-stranded DNA, one strand shown
# Sample: in vitro
# Concentration: 2 µM
# Notes: whole 60-bp probe, lowest competitor level
# Together with: Pho4 competitor, 0.05 µM
# Direction: higher = stronger binding
# Constant ends, left off below: … GTCTTGATTCGCTTGACGCTGCTG
Sequence,fluorescence intensity
GAAACAGCTGCTACCCACGATGTAGTGTTTGAAACA,70 a.u.
CGGGGTTAAGTTTGCGCAGTGGGTGGCTTGCAGCAG,72.8 a.u.
AAATTACTAAGTTGAGGAGTGGGTGACGCCGTATGA,63.5 a.u.
CTAACGAAGGTTTGCGGGGTGGGTGACAAGCCAAGT,73.3 a.u.
AAATTACTAAGTTGTAATGTGGGTGACGCCGTATGA,71.7 a.u.
CGTCCTAGCGATTGATACGTGGGTGCCATGAGGAAG,98.7 a.u.
CAATGGTTACTTCGACACATGCCACTAAGACAATAC,103 a.u.
AAAATCCATTTTTAAAACGTGTGAATGTTTTCCCTG,139 a.u.
CTTCTGTAAATTTGAGGGGTGGGTGGACGCGCCCCG,90.6 a.u.
TGCGCAACAACTTGGGTGGTGGGTGTATGTCTAGAA,70.2 a.u.
GTCTTGTCTCATTGCCCCGTGGGTGTCCCCACTTCA,92.7 a.u.
CGGGGTTAAGTTTGGCGCGTGGGTGGCTTGCAGCAG,96.2 a.u.
TGCGCAACAACTTGCCTAGTGGGTGTATGTCTAGAA,65.3 a.u.
TGCGCAACAACTTTTCACGTGGTTTTATGTCTAGAA,1170 a.u.
AGAGAAATATCGGAACGCATGCAGACCAAATTTATA,91 a.u.
ATTCATTCAAGCTAGCAAACTTAGATCTCAAAAAAT,68.4 a.u.
CATTGGCAGAACCCGATCGTGGGACAGAACACCAAC,62.8 a.u.
CTAACGAAGGTTTGGGGTGTGGGTGACAAGCCAAGT,64.1 a.u.
CAAGGATTCCTAATTCACGTGCAAAAGCAACCGGAT,1250 a.u.
ACCACCACAACGACAAGCGTGCCGATGTCCCCGTTA,70.6 a.u.
GTTGCTGCACTTGCTTGCGTGGGTACTTTTTGTCGG,68.8 a.u.

# Sample 2
# Target: Interferon regulatory factor 5, full length, phosphomimetic (IRF5, Homo sapiens, UniProt Q13568-2, residues 1-514, K96S/S451D/S453D/S456D/S462D)
# Technique: protein-binding microarray
# Form: double-stranded DNA, one strand shown
# Sample: in vitro
# Concentration: 250 nM
# Notes: 60-bp whole probe
# Together with: salmon DNA 0.4 mg/ml
# Baseline: random background probes
# Direction: higher = stronger binding
# Constant ends, left off below: GCCTAGCAC … GTCTTGATTCGCTTGACGCTGCTG
Sequence,log fluorescence
GACGATCTCAGTCTCGAGAGGTGCTAG,-0.0739 z-score
TTAGCACTGCTTCTCCTTTAGTGCTAG,0.182 z-score
TCAAAAATGGCTTTGCAACTGTGCTAG,-0.066 z-score
TCAGTTTTAAATAGGGCACTGTGCTAG,0.0818 z-score
GACGAACTGAGACTGGAGTCGTGCTAG,-0.446 z-score
TCACCTTTGAAAGTTGTTACTGTGCTA,0.755 z-score
GACGATCTCAGACTGGAAACGTGCTAG,-0.342 z-score
ACAGGTTCTCTTTTATTTTTGTGCTAG,0.945 z-score
GACGGACTGGGTCTCGGGACGTGCTAG,-0.756 z-score
TCAAAGCTTCCTCTCTGACTGTGCTAG,-0.042 z-score
TCATGTCCCTATTTAAGACTGTGCTAG,0.188 z-score
GACGGTCTCCGACTGGGGACGTGCTAG,-0.444 z-score
TTAGGACTGGGGTTTCGGTTGGTGCTA,5.68 z-score
TCATTTTGCTTTCTTTAACTGTGCTAG,2.32 z-score
GGTCCTCTCTCTATTCAGAGGTGCTAG,-0.235 z-score
TCATCTTTCGATGCTAAAACTGTGCTA,7.87 z-score
TTACGACTGCTTCTCCTTTAGTGCTAG,0.676 z-score
TCATTTTACTTTCTGAAACTGTGCTAG,4.2 z-score
AACGGTCTCGGTCTCGGGACGTGCTAG,0.511 z-score
TCATCCCTAATTCTGATACTGTGCTAG,0.257 z-score
TCAGATTTCGGGTTTCGATTAGTGCTA,8.47 z-score
GACGGTTTCGCGTATCGGGACGTGCTA,2.39 z-score
GACGGTATCCTTCTCCTGTCGTGCTAG,0.438 z-score
CCACTTTCACTTCTCCCTTTGTGCTAG,8.63 z-score
TCAATGATCTCTCTGGGACTGTGCTAG,-0.0749 z-score

# Sample 3
# Target: Protein max, full length (MAX, Homo sapiens, UniProt P61244-2, residues 1-151)
# Technique: protein-binding microarray
# Form: double-stranded DNA, one strand shown
# Sample: in vitro
# Concentration: not given
# Notes: k-mer, scored over probes, only values ≥0.25
# Direction: higher = stronger binding
Sequence,E-score
CGTGTAAG,0.321
ACGAGGGG,0.354
AAACACAT,0.385
CACACGAG,0.412
CAGCATGG,0.458
ACATGGCA,0.385
CACCTGTA,0.298
CCCCATGA,0.3
ACGTGAAG,0.309
CACGAGAA,0.356
CACGCCCG,0.323
AGGGCACG,0.337
GCGTGCGA,0.401
GTGTGTCA,0.255
AACTCATG,0.33
CCCGCACG,0.359
TGGCCACA,0.366
ATGGCCAC,0.335
GTGGCAGA,0.271

# Sample 4
# Target: Sal-like protein 4, full length isoform A (SALL4, Homo sapiens, UniProt Q9UJQ4, residues 1-1053)
# Chain of UniProt Q9UJQ4 (whole entry, looked up): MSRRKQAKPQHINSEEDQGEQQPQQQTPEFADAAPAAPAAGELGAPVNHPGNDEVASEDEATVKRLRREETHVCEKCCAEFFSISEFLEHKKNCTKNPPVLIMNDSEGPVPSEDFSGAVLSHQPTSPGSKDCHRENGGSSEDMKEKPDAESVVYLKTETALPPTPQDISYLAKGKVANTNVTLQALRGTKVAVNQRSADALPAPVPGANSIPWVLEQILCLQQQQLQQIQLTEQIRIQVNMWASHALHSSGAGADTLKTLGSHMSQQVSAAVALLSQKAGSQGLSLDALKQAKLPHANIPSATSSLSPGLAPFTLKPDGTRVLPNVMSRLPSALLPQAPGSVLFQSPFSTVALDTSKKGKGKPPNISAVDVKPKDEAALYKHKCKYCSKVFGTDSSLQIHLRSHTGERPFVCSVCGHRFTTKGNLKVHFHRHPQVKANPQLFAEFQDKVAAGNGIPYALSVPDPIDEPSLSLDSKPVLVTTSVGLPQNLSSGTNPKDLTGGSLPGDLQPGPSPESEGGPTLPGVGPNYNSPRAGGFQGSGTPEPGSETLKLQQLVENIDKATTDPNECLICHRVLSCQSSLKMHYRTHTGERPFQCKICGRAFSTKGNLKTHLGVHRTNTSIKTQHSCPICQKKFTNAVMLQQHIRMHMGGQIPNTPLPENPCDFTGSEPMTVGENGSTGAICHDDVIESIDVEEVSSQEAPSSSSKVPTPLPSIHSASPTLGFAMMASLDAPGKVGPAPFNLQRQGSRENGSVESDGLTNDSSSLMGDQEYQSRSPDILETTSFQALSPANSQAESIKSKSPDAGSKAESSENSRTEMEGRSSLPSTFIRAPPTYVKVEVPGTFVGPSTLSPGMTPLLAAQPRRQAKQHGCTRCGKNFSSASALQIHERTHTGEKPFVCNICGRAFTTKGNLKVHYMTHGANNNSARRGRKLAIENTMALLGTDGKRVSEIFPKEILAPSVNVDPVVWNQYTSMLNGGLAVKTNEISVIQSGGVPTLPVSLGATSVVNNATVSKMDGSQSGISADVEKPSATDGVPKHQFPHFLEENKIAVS
# Technique: universal PBM
# Form: double-stranded DNA, one strand shown
# Sample: in vitro
# Concentration: 600 nM
# Notes: 8-mer, flanks averaged, mean of replicates
# Direction: higher = stronger binding
Sequence,E-score
ACTGCTAC,0.0165
GTGTGTCA,0.158
ACTGATAT,0.178
GATAAGAC,0.121
GACGAAGC,-0.0844
CTATTGAG,0.129
AGTCGGGG,-0.195
CCAATCTC,0.123
CCTGACGA,-0.0253
GAACGTGC,-0.201
CAGACCAA,-0.0353
ATTAAGGA,0.188
CTCGCCCC,-0.365
CTACAGAG,0.0727
GAAGAAAA,0.116
ACGTTCCG,-0.251
AGGTGAGG,-0.132
CAGCAGGG,-0.244
AATGAGCA,0.132
GAGACGCA,-0.18
AGACTCCT,-0.157
GGGACGGA,-0.294
AATGCCGA,-0.0379
ATGCTTTG,0.199
AAGTCTCC,-0.0199

# Sample 5
# Target: RNA binding protein fox-1 homolog 2, RRM domain, GST-SBP tag (RBFOX2, Homo sapiens, UniProt O43251-10, residues 100-194)
# Technique: RNA Bind-n-Seq
# Form: RNA
# Sample: in vitro
# Concentration: 365 nM
# Notes: natural RNA segment, single round, ends assumed
# Baseline: no-protein control
# Direction: higher = stronger binding
# Constant ends, left off below: GGGAGUUCUACAGUCCGACGAUC … UGGAAUUCUCGGGUGCCAA
# Construct (chain): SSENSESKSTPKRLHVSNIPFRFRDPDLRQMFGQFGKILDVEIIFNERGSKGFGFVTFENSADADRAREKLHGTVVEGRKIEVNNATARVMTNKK
Sequence,RBNS enrichment (R)
CCUGAUAGACUGAAAAUUGAGCAAAUGGAAGAAGAUACAGUAUUGUUUAGAUCAGAAUCAUUAAAAAAUAUUUUUGUUUAGUAAGUUUGAAGAUUUCUGGCUUUUAGGCC,0.873
CAACCACCCUGGGCCCAGAAACAGAGGCCUGCCGAGGGGAGGAGCCUGGCCUCUGUCCACCCGUCAGCAGUGUGAAGUCUGUUGUGUUUGAGCUUCUCAGAGUGGAAUGA,1.4
ACCUUGUAAUGUAACUGCUCUUGGGCAAUAUUCUCUGUACAUAUUAGCGACAACAGAUUGGAUUUUAUGUUGACAUUUGUUUGGUUAUAGUGCAAUAUAUUUUGUAUGCA,4.8
GAUUUGCUACCAGAGCAAACUCAGUUCUGCCUGUCCCUGAAGUAUGACCAGGAGACAGCCAGUUUCAAGGGCUGUCUGCCUAGCAGAGGCCAAGUGGUUUGAAGUUAUUU,0.755
CCAGAGUGAGUACUUACGAUAUCAAGAGGCCUUGAGUGAGCUGGCCACUGUGGUCAAAGCACGAAUUGGAAGUUCUCAGAGACAACACCAGUCAGCAGCCAAAGACCUAA,0.956
AAAUAAGACAUGCUGAGUUUGGUGAGAAGAAGCAAAACCCGAGACCAUUAAUGAUUCAUCCGCACCAAUGAAGAAGUUGUAACUAACUAGCAUGCUGCGCAGACACUGGC,1.95
UAGAGUGGGGCGCUGCUGUAAAUACCCAAAAAUGUGGAAGCAACUUUGGAACUGGGUAACAGGCAGAGGUUGGAACAGUUUGGAGGGAUCAGAAGACAGGAAAAUGUGGG,1.25
CCUUCCUCAGCCUCUGGCCCUCUUGGCUCAGAUUCAAUCAAAUGUUGCUUCCCUCUCCUGUCUUUCCCACUGGAGCCGCCCAAGCUUGUAGGUGGGUGGUGUGCAUAGGC,1.15
AUGCUCAUACAAUAAUCUCAAGAGCCCUGUCUGUUUCGUAAUAGUAACUACUUCUCAUGAACACUACCCAAGGAGGAAGCCUGCACCUGGGAAGUGUGCAGUGUGAGCUC,0.614
ACUUGUUACAGUGUCCUUUUUUUCUCAGCUUCAGGAUUAUGGACAUAGAUCUCCACACCUGGCUUGUAACUAUUUUGAGGCUGAAAGAGCUAAUGAAGGGCCCUGCCUAG,0.62
CCCAGGAGUUCAAGACCAGCCUGAGAAACAUAGUGAGACCCUGUCUCUAAAAAAAUAAAAACUUAGCAAGGCAUGGUGGUGCACACCUGUAGUCCUAGCUACUCAGGAGG,0.294
CUUCAAUUGGUACUUUAUUCUUUGCUGCUGUUUUUGUAUAAAAUGACCUAUCCCACGUUUUUGCAUGAAUUUAUAGCAGGAAAAAUCAAGGGAUUUCCUAUGGAAGUCCU,0.566

# Sample 6
# Target: Histone acetyltransferase KAT6A, winged helix 1, GST fusion (KAT6A, Homo sapiens, UniProt Q92794, residues 1-85)
# Technique: protein binding microarray
# Form: double-stranded DNA, one strand shown
# Sample: in vitro
# Concentration: not given
# Notes: 8-mer, flanks averaged, mean of 2 arrays, mostly near background
# Baseline: not given
# Direction: higher = stronger binding
# Construct (chain): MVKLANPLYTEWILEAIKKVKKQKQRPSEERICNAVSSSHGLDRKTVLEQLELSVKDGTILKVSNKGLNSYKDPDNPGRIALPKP
Sequence,E-score
AACAACCT,-0.271
ACACTGCC,0.0367
CAAACAGA,-0.152
TCGTTCAA,-0.0923
CGATAGAC,0.0435
AACACGAT,-0.116
AGTAGGTG,-0.107
CGCTCCTC,0.131
GACTGTCC,0.0613
ACCACGCG,0.296
ATGGTTGA,0.0377
GAATACAA,-0.0773
CCAGCATA,-0.147
AACGTGAT,0.0145
GTCGTACA,-0.0615
ATGTAGCC,-0.0138
CTCGACTC,-0.134
AACGCCAG,-0.0909
ATCATGTG,-0.198
GCCGCTAA,0.359
CTGCGTGA,0.144
CTGGAACC,-0.0537
CTTCAGCA,-0.175
ACAAGGTG,-0.0138
GGCTTTGA,0.0267

# Excerpt of the above (sample 6):
Sequence,E-score
CGATAGAC,0.0435
AACACGAT,-0.116
AGTAGGTG,-0.107
CGCTCCTC,0.131
GACTGTCC,0.0613
ACCACGCG,0.296
ATGGTTGA,0.0377
GAATACAA,-0.0773
CCAGCATA,-0.147
AACGTGAT,0.0145
